Measurements of several laboratories.
Compare with care: the assays were run in different laboratories. Several values in a cell are separate wells, animals, samples, runs or records. ± marks the error that the study gave.

| Compound | tested on | test | test system | conditions | scale | measurement | result |
| --- | --- | --- | --- | --- | --- | --- | --- |
| C=CC(=O)Nc1cccc(Cn2ncc3cnc(Nc4cnn(CCOC)c4)nc32)c1 | DCAMKL3 human | binding, KINOMEscan | – | 100 nM | lower = stronger binding | percent of control | 100% |
| CN1CCCNC(=O)c2cccc(c2)C(=O)NCCCN(C)CCCNc2cccc3c2C(=O)c2cccc(c2C3=O)NCCC1 | SAS | RNA-Seq, refers to: PNN mRNA | – | 5 µM, 24 h | reference: untreated cells | log2 fold change | 0.0631 |
| CC(=O)c1cnc(N)nc1N1CC[C@H]1c1nn2ccc(Cl)c2c(=O)n1-c1ccccc1 | PI3Kγ | KiNativ | monkey white blood cell lysate | 1 µM | – | binding | 93.3% |
| O=C1c2sc(-c3ccc(N4CCC(F)C4)nc3F)nc2CCN1c1cccnc1 (stereo not drawn) | TDP-43 (human) | CFTR exon splicing | SH-SY5Y | 0.1 µM, TDP-43-controlled CFTR minigene | – | exon inclusion | 58% and 51.5% and 49.8% and 48% |
| Cc1ncsc1-c1ccc(C(C)NC(=O)C2CC(O)CN2C(=O)C(NC(=O)CCCCCCCCCCN2CCCC(Nc3ncc(Cl)c(Nc4ccccc4S(=O)(=O)C(C)C)n3)C2)C(C)(C)C)cc1 (stereo not drawn) | 22Rv1 | RNA-seq, refers to: METTL23 mRNA | – | concentration not given | reference: DMSO | log2 fold change | -1.26 |
| c1ccc(-c2n[nH]cc2-c2ccnc3ccccc23)nc1 | CKA2 (Candida albicans) | kinase binding, MIB/MS competition | Candida albicans lysate | 1 µM | reference: DMSO | log2 fold change | 0.03 |
| c1ccc2c(Nc3cc(C4CCC4)[nH]n3)nc(Nc3ccc4nc[nH]c4c3)nc2c1 | AMPK human | enzyme activity | – | 250 nM | – | remaining activity | 1% |
| NCCOc1cc(NC(=O)c2cc(OCc3cn(Cc4ccc(C(=O)O)cc4)nn3)cc(C(=O)Nc3cc(OCCN)c4ccccc4n3)n2)nc2ccccc12 | c-kit2 G-quadruplex DNA | FRET melting | – | 1 µM, pH 7.4, together with: 60 mM potassium | – | ΔTm | 9.2 ± 0.5 K |
| COC1CN([C@H]2CC[C@H]([C@@]3(C)Oc4c(Cl)cc(C(=O)NCc5c(SC)cc(C)[nH]c5=O)c(C)c4O3)CC2)C1 | – | RNA-seq, refers to: OSGIN2 | human, whole blood | dose not given, 24 h | reference: pretreatment baseline | log2 fold change | 1.13 |
| CNS(=O)(=O)Nc1nccc(Cc2c(C)c3ccc(Oc4ncccc4F)cc3oc2=O)c1F | 8505C | cell viability | – | 7 days | – | IC50 | > 1000 nM |
| C=CC(=O)N1[C@@H](c2ccc3c(c2)OCO3)c2[nH]c3ccccc3c2C[C@H]1C(=O)N1CCN(C)CC1 | CCNE1 WT-3xFLAG:CDK2 complex | co-IP TMT proteomics, refers to: TUBA1A | HEK-293T | 20 µM, 6 h | reference: DMSO | log2 fold change | 0.08 |
| Nc1ncc(-c2cc(-c3cnn(CC(F)(F)F)c3)ncc2F)nc1C(=O)NC1CNCC(F)C1 (stereo not drawn) | MLK3 | KINOMEscan | – | 1 µM | reference: DMSO control | remaining binding | 71% |
